Measurements of several laboratories.
Compare with care: the assays were run in different laboratories. Values joined by “and” are separate records of one study, mostly repeats; a detail may differ. ± gives the spread as reported.

The viability of `CC(=O)O[C@H]1C(=O)[C@@]2(C)[C@H]([C@H](OC(=O)c3ccccc3)[C@]3(O)C[C@H](OC(=O)[C@H](O)[C@@H](NC(=O)c4ccccc4)c4ccccc4)C(C)=C1C3(C)C)[C@]1(OC(C)=O)CO[C@@H]1C[C@@H]2O` is reported as 6.25% and 5.78% (CHP-212 parental; SRB; 10 µM).
`Cc1cc(C(=O)NC(C)(C)COc2cccc3c2C(N)=NS(=O)(=O)N3)cc(C)n1` has a cytotoxicity of 1% (human peripheral blood lymphocytes; CBPI, preliminary test; 20 µg/mL, 4 h; reference: vehicle control).
For `CCCCCCNc1nc(NC2CCN(C)CC2)c2cc(OC)c(OC)cc2n1`, the EC50 was 2.68 µM (Toxoplasma gondii; tachyzoite growth, luciferase; ME49-Fluc, type II).
Under “cells with aberrations”, `COC[C@@H](CC(C)C)NC(=O)c1ccc(C)c(C)c1` is recorded as 0% (primary human lymphocytes; refers to: structural aberrations; 225 µg/mL, 4 h, without S9).
With `C=CC(=O)Nc1ccc(C2=C(c3ccc(O)cc3)C3OC2CC3S(=O)(=O)Oc2ccccc2)cc1` (centres unmarked) the IC50 was 15.9 ± 2.2 µM (MCF-10A; cell viability; 72 (unit not given)).
With `CC(=NNC(=O)COc1ccc2c(C)c(Cc3ccccc3)c(=O)oc2c1C)c1ccc(Br)cc1` the viability was 73% (HPrEC normal prostate epithelial cells; MTT; 1.6 µg/mL, 2% serum).
The EC50 of `CC[C@H]1CN2CCc3cc(OC)c(OC)cc3[C@@H]2C[C@@H]1C[C@H]1NCCc2cc(OC)c(OC)cc21` is reported as 0.03 µM (Toxoplasma gondii; tachyzoite growth, luciferase; ME49-Fluc, type II).
For `O=C(CCl)Nc1ccc(OS(=O)(=O)C2CC3OC2C(c2ccc(O)cc2)=C3c2ccc(O)cc2)cc1` (centres unmarked), the IC50 was 15.3 ± 1.93 µM (MCF-10A; cell viability; 72 (unit not given)).
For `COc1cccc2c1C(=O)c1c(O)c3c(c(O)c1C2=O)C[C@@](O)(C(=O)CO)C[C@@H]3O[C@H]1C[C@H](N)[C@H](O)[C@H](C)O1`, the viability was 55.5% and 52.2% (CHP-212 parental; SRB; 0.04115 µM).
For `C[C@]12CC[C@@H]3c4ccc(O)cc4C[C@@H](CCCCCCCCC[S+]([O-])CCCC(F)(F)C(F)(F)F)[C@H]3[C@@H]1CC[C@@H]2O` (some centres unmarked), the viability was 50.2% and 54.2% and 58.1% (MCF7; CCK-8; 50 nM; reference: untreated).
`CC(C)=CC(=O)Nc1ccc(C2=C(c3ccc(O)cc3)C3OC2CC3S(=O)(=O)Oc2ccccc2)cc1` (centres unmarked) has an IC50 of 11.2 ± 0.15 µM (MCF-10A; cell viability; 72 (unit not given)).
`Cc1nn(-c2nc3c(F)cc(F)cc3s2)c(O)c1C(c1ccc(C(F)(F)F)cc1)c1c(C)nn(-c2nc3c(F)cc(F)cc3s2)c1O` has a CC50 of 93.4 µM (THP1-Dual; cell viability, CCK-8; 24 h).
The viability of `C#Cc1cccc(Nc2ncnc3cc(OCCOC)c(OCCOC)cc23)c1` is reported as 86.5% (HPrEC normal prostate epithelial cells; MTT; 0.2 µg/mL, 2% serum).
With `Nc1ccc(C2=C(c3ccc(O)cc3)C3OC2CC3S(=O)(=O)N(CC(F)(F)F)c2ccc(O)cc2)cc1` (centres unmarked) the IC50 was 32.3 ± 0.66 µM (MCF-10A; cell viability; 72 (unit not given)).

A few entries again:
The viability of `C#Cc1cccc(Nc2ncnc3cc(OCCOC)c(OCCOC)cc23)c1` is reported as 86.5% (HPrEC normal prostate epithelial cells; MTT; 0.2 µg/mL, 2% serum).
With `Nc1ccc(C2=C(c3ccc(O)cc3)C3OC2CC3S(=O)(=O)N(CC(F)(F)F)c2ccc(O)cc2)cc1` (centres unmarked) the IC50 was 32.3 ± 0.66 µM (MCF-10A; cell viability; 72 (unit not given)).
